Experimental data from different studies.
Parts stem from different laboratories: compare values within a part only. Values joined by “and” are separate records of one study, mostly repeats; a detail may differ.
Chain of UniProt P41595 (whole entry, looked up): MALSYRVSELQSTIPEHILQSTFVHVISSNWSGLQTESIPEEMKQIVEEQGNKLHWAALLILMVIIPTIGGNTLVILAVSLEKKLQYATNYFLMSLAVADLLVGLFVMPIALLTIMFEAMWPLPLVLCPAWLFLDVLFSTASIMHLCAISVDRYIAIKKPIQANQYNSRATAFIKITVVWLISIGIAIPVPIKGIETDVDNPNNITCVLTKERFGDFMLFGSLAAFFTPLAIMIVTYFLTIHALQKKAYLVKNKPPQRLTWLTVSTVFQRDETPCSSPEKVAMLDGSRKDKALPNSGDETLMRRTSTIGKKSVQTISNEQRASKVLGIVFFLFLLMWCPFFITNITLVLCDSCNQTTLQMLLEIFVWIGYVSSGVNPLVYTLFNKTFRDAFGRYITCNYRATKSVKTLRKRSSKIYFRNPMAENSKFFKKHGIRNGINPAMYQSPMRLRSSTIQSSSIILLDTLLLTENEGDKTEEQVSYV

Sample 1 — mode: inhibitor; tested at: 10 µM; relative to: control
Target: Diamine acetyltransferase 1 (Homo sapiens, UniProt P21673)
Construct (P21673 1-171): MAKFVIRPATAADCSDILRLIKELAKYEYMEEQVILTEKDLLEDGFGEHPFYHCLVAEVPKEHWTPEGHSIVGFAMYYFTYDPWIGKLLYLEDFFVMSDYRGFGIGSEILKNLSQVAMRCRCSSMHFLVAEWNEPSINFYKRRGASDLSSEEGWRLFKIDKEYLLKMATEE
| Structure (SMILES) | remaining activity [%] |
| --- | --- |
| Oc1cc(O)c2c(c1)O[C@H](c1cc(O)c(O)c(O)c1)[C@H](O)C2 | 85.6 |
| O[C@@H]1[C@@H](O)[C@H](OC/C=C/c2ccccc2)O[C@H](CO[C@@H]2OC[C@H](O)[C@H](O)[C@H]2O)[C@H]1O | 89.8 |
| O=C(O)c1cc(O)ccc1O | 91 |
| COc1c(/C=C/C(=O)c2ccc(O)cc2)ccc(O)c1CC=C(C)C | 91.5 |
| OC[C@H]1O[C@@](CO)(O[C@H]2O[C@H](CO)[C@@H](O)[C@H](O)[C@H]2O)[C@@H](O)[C@@H]1O | 84.3 |
| CCCCCCCCCCCCO | 99.4 |
| CC1(C)CC(=O)CC(C)(C)N1 | 87.9 |
| CCCCCCCCCCCCCCCCCCCCCCCCCCCCCCC | 109 |
| C=C1C(=O)O[C@H]2[C@H]1CC/C(C)=C/CC[C@@]1(C)O[C@@H]21 | 101 |
| c1ccc2[nH]ccc2c1 | 114 |
| COc1ccc(-c2coc3cc(O)cc(O)c3c2=O)cc1 | 78.8 |

Sample 2 — method: Incucyte 3D growth; tested at: 30 µM; reading: higher = more growth
Compound: CC(C)(C(=O)O)[C@H](NC(=O)Cc1cccc(I)c1)c1ccc2oc(=O)[nH]c2c1
| cell line | time | spheroid area |
| --- | --- | --- |
| KP-4 | 48 h | 1.18e+07 a.u. and 1.31e+07 a.u. and 1.46e+07 a.u. and 1.3e+07 a.u. and 1.5e+07 a.u. and 1.43e+07 a.u. |
| MEL-JUSO | 42.52 h | 8.6e+06 a.u. and 1.02e+07 a.u. and 1.34e+07 a.u. and 1.19e+07 a.u. and 1.11e+07 a.u. |
| NCI-H358 | 48 h | 4.01e+06 a.u. and 4.17e+06 a.u. and 4.55e+06 a.u. and 3.47e+06 a.u. and 3.87e+06 a.u. and 2.98e+06 a.u. |
| PC-9 | 18 h | 2.64e+08 a.u. and 2.72e+08 a.u. and 2.92e+08 a.u. and 2.74e+08 a.u. and 2.7e+08 a.u. |
| MEL-JUSO | 468.52 h | 2.17e+07 a.u. and 3.14e+07 a.u. and 5.35e+07 a.u. and 2.51e+07 a.u. and 3.26e+07 a.u. and 7.72e+07 a.u. |
| A375 | 324.52 h | 1.75e+08 a.u. and 1.69e+08 a.u. and 1.97e+08 a.u. and 1.74e+08 a.u. and 1.93e+08 a.u. |
| A375 | 204.52 h | 1.35e+08 a.u. and 1.42e+08 a.u. and 1.5e+08 a.u. and 1.61e+08 a.u. and 1.51e+08 a.u. and 1.65e+08 a.u. |
| KP-4 | 42 h | 1.47e+07 a.u. and 1.44e+07 a.u. and 1.22e+07 a.u. and 1.4e+07 a.u. and 1.24e+07 a.u. |
| MEL-JUSO | 240.52 h | 1.94e+07 a.u. and 1.5e+07 a.u. and 3.04e+07 a.u. and 1.64e+07 a.u. and 1.95e+07 a.u. and 1.63e+07 a.u. |
| KP-4 | 24 h | 1.2e+07 a.u. and 1.1e+07 a.u. and 1.04e+07 a.u. and 1.24e+07 a.u. and 1.28e+07 a.u. |
| A375 | 300.52 h | 1.74e+08 a.u. and 1.97e+08 a.u. and 1.8e+08 a.u. and 2e+08 a.u. and 1.75e+08 a.u. |

Sample 3 — organism: Sarcocystis neurona; observed: parasite growth; tested at: 10 µM
| Structure (SMILES) | inhibition |
| --- | --- |
| Nc1cc(N2CCCCC2)nc(N)[n+]1[O-] | -27.7% |
| c1cnc(N2CCN(Cc3ccc4c(c3)OCO4)CC2)nc1 | -34.9% |
| COC(=O)C[C@](O)(CCCC(C)(C)O)C(=O)O[C@@H]1C(OC)=C[C@]23CCCN2CCc2cc4c(cc2[C@H]13)OCO4 | 99.6% |
| C/C=C1\[C@H]2C=C(C)C[C@]1(N)c1ccc(=O)[nH]c1C2 | -23% |
| CSc1nc2cc(Cl)c(Oc3cccc(Cl)c3Cl)cc2[nH]1 | 10.3% |
| Nc1ccn([C@@H]2CS[C@H](CO)O2)c(=O)n1 | -33.6% |
| CC(=O)Oc1ccccc1C(=O)Nc1ncc([N+](=O)[O-])s1 | -108% |
| CCN(CC)CCOc1ccc(C(=C(Cl)c2ccccc2)c2ccccc2)cc1 | 2.3% |
| CCCOc1ccc(C(=O)OCCN(CC)CC)cc1N | -27.7% |

Further values, each from its own experiment
| Structure (SMILES) | target or system | test | conditions | how to read | quantity | value |
| --- | --- | --- | --- | --- | --- | --- |
| Cn1cncc1[C@@](O)(COc1ccc(C#N)cc1-c1ccc(OC(F)(F)F)cc1)c1ccc(C#N)cc1 | HEK293T | high-content imaging | 10 µM, 24 h | – | apoptotic cells | 12.1% |
| CNC(=O)Nc1ccc2c(c1)CC[C@]21OC(=O)N(CC(=O)N(Cc2ccc(F)cc2)[C@@H](C)C(F)(F)F)C1=O | 5-hydroxytryptamine receptor 2B (HTR2B, Homo sapiens, UniProt P41595) | binding | off-target scan | – | Ki | 1.29 µM |
| CN(C)C(=O)/C(C#N)=C/c1ccc(-c2nc3cnc4c(ccn4C)c3n2C2CCCCC2)o1 | sample I colorectal tumour organoid | – | 0.1 µM | relative to: DMSO | viability | 123% |

Repeated from above (sample 2):
| cell line | time | spheroid area |
| --- | --- | --- |
| KP-4 | 24 h | 1.2e+07 a.u. and 1.1e+07 a.u. and 1.04e+07 a.u. and 1.24e+07 a.u. and 1.28e+07 a.u. |
| MEL-JUSO | 468.52 h | 2.17e+07 a.u. and 3.14e+07 a.u. and 5.35e+07 a.u. and 2.51e+07 a.u. and 3.26e+07 a.u. and 7.72e+07 a.u. |
| NCI-H358 | 48 h | 4.01e+06 a.u. and 4.17e+06 a.u. and 4.55e+06 a.u. and 3.47e+06 a.u. and 3.87e+06 a.u. and 2.98e+06 a.u. |
